Assay results collected from several papers.
Each line is one published result; not all experiments were run side by side.
HLA class I histocompatibility antigen, B alpha chain allele B*18:01: HLA class I histocompatibility antigen, B alpha chain, allele B*18:01 (Homo sapiens, UniProt P01889)
HLA class I histocompatibility antigen, B alpha chain allele B*40:01: HLA class I histocompatibility antigen, B alpha chain, allele B*40:01 (Homo sapiens, UniProt P01889)
HLA class I histocompatibility antigen, B alpha chain allele B*27:05: HLA class I histocompatibility antigen, B alpha chain, allele B*27:05 (Homo sapiens, UniProt P01889)
HLA class I histocompatibility antigen, B alpha chain: HLA class I histocompatibility antigen, B alpha chain (Homo sapiens, UniProt P01889)

SMILES | target | test | conditions | IC50
CC[C@H](C)[C@H](NC(=O)[C@H](CC(C)C)NC(=O)CN)C(=O)N[C@H](C(=O)N[C@@H](CC(C)C)C(=O)N[C@@H](CO)C(=O)N[C@@H](Cc1ccc(O)cc1)C(=O)N[C@@H](Cc1c[nH]cn1)C(=O)N[C@@H](CC(C)C)C(=O)O)[C@@H](C)O | HLA class I histocompatibility antigen, B alpha chain allele B*18:01 | peptide-MHC binding, radioligand competition binding | – | > 70 µM
CC[C@H](C)[C@H](NC(=O)[C@@H]1CCCN1C(=O)[C@H](CCCCN)NC(=O)[C@@H]1CCCN1C(=O)[C@H](CCSC)NC(=O)[C@H](CCC(N)=O)NC(=O)[C@@H](N)Cc1ccc(O)cc1)C(=O)N[C@H](C(=O)N[C@@H](Cc1ccccc1)C(=O)O)[C@@H](C)O | HLA class I histocompatibility antigen, B alpha chain allele B*40:01 | binding | – | 23.1 µM
CSCC[C@H](NC(=O)[C@H](C)NC(=O)[C@@H](NC(=O)[C@H](Cc1ccccc1)NC(=O)[C@H](Cc1ccccc1)NC(=O)[C@H](Cc1ccccc1)NC(=O)[C@H](Cc1ccc(O)cc1)NC(=O)[C@H](CCCNC(=N)N)NC(=O)[C@@H](N)Cc1c[nH]cn1)C(C)C)C(=O)O | HLA class I histocompatibility antigen, B alpha chain allele B*27:05 | peptide binding, fluorescence anisotropy | 18 h, 4 °C | 0.353 µM
CC[C@H](C)[C@H](NC(=O)[C@@H](NC(=O)[C@@H](NC(=O)[C@H](CC(N)=O)NC(=O)[C@@H](NC(=O)[C@H](CO)NC(=O)[C@H](CC(N)=O)NC(=O)[C@H](CC(C)C)NC(=O)[C@@H](N)Cc1ccc(O)cc1)[C@@H](C)O)C(C)C)[C@@H](C)O)C(=O)O | HLA class I histocompatibility antigen, B alpha chain allele B*18:01 | peptide-MHC binding, radioligand competition binding | – | > 70 µM
CC[C@H](C)[C@H](NC(=O)CNC(=O)[C@@H](NC(=O)[C@H](CC(N)=O)NC(=O)[C@@H](NC(=O)[C@H](CCCNC(=N)N)NC(=O)[C@@H](N)CCCCN)[C@@H](C)O)C(C)C)C(=O)N[C@@H](CC(C)C)C(=O)N[C@@H](CCCCN)C(=O)O | HLA class I histocompatibility antigen, B alpha chain allele B*27:05 | peptide binding, fluorescence anisotropy | 18 h, 4 °C | 0.136 µM
CSCC[C@H](NC(=O)[C@H](CCC(=O)O)NC(=O)[C@H](CCC(=O)O)NC(=O)[C@@H](N)CCCNC(=N)N)C(=O)N[C@@H](CCC(=O)O)C(=O)N[C@H](C(=O)N[C@@H](Cc1c[nH]cn1)C(=O)N[C@@H](CCC(=O)O)C(=O)N[C@@H](CC(C)C)C(=O)O)C(C)C | HLA class I histocompatibility antigen, B alpha chain allele B*40:01 | binding, competitor, radioligand competition | two days, room temperature, HLA-B*40:01 | 0.02 µM
CC(C)C[C@H](NC(=O)[C@H](Cc1ccc(O)cc1)NC(=O)CNC(=O)[C@@H](N)C(C)C)C(=O)N[C@@H](CCC(N)=O)C(=O)N1CCC[C@H]1C(=O)N[C@@H](CCCNC(=N)N)C(=O)N[C@H](C(=O)N[C@@H](Cc1ccccc1)C(=O)O)[C@@H](C)O | HLA class I histocompatibility antigen, B alpha chain | peptide-MHC binding, radioligand competition binding | – | > 70 µM
CC(C)C[C@H](NC(=O)[C@@H]1CCCN1C(=O)[C@@H](NC(=O)[C@@H]1CCCN1C(=O)[C@@H](NC(=O)[C@H](CCC(=O)O)NC(=O)[C@H](Cc1c[nH]cn1)NC(=O)[C@H](CCCNC(=N)N)NC(=O)[C@@H](N)CCCCN)C(C)C)C(C)C)C(=O)O | HLA class I histocompatibility antigen, B alpha chain allele B*27:05 | peptide binding, fluorescence anisotropy | 18 h, 4 °C | 0.907 µM
CC[C@H](C)[C@H](NC(=O)[C@@H]1CCCN1C(=O)[C@H](CO)NC(=O)[C@H](CCSC)NC(=O)[C@H](CCC(N)=O)NC(=O)[C@@H](N)CCCCN)C(=O)N[C@@H](Cc1c[nH]c2ccccc12)C(=O)N[C@H](C(=O)N[C@@H](Cc1ccc(O)cc1)C(=O)O)[C@@H](C)O | HLA class I histocompatibility antigen, B alpha chain allele B*40:01 | binding | – | 45.7 µM
C[C@@H](O)[C@H](NC(=O)[C@H](CO)NC(=O)[C@@H]1CCCN1C(=O)[C@H](CCC(=O)O)NC(=O)[C@H](Cc1ccccc1)NC(=O)[C@H](CCC(=O)O)NC(=O)[C@@H](N)CCC(=O)O)C(=O)N[C@@H](CCC(N)=O)C(=O)N[C@@H](Cc1ccc(O)cc1)C(=O)N[C@@H](CCC(=O)O)C(=O)N[C@@H](Cc1ccc(O)cc1)C(=O)O | HLA class I histocompatibility antigen, B alpha chain allele B*18:01 | peptide-MHC binding, radioligand competition binding | – | 0.0011 µM
CC[C@H](C)[C@H](NC(=O)[C@H](CCC(N)=O)NC(=O)[C@@H]1CCCN1C(=O)[C@H](Cc1ccc(O)cc1)NC(=O)[C@@H]1CCCN1C(=O)[C@@H](N)CC(C)C)C(=O)N[C@@H](CC(C)C)C(=O)N[C@@H](CC(C)C)C(=O)N[C@@H](CC(C)C)C(=O)O | HLA class I histocompatibility antigen, B alpha chain, allele B*51:01 (Homo sapiens, UniProt P01889) | binding, competitor | – | 0.066 µM
CC(C)[C@H](NC(=O)[C@@H](N)CCCCN)C(=O)N[C@@H](CC(=O)O)C(=O)N1CCC[C@H]1C(=O)N[C@@H](CCCCN)C(=O)N[C@@H](Cc1ccccc1)C(=O)N[C@H](C(=O)N[C@@H](CO)C(=O)N[C@@H](Cc1ccccc1)C(=O)O)[C@@H](C)O | HLA class I histocompatibility antigen, B alpha chain allele B*40:01 | binding | – | 52.4 µM
CC(C)C[C@H](NC(=O)[C@@H]1CCCN1C(=O)[C@H](CCC(N)=O)NC(=O)[C@H](CCCNC(=N)N)NC(=O)[C@H](Cc1c[nH]cn1)NC(=O)[C@H](CC(C)C)NC(=O)[C@H](Cc1ccccc1)NC(=O)[C@H](CCCNC(=N)N)NC(=O)[C@@H](N)CCCCN)C(=O)O | HLA class I histocompatibility antigen, B alpha chain allele B*27:05 | peptide binding, fluorescence anisotropy | 18 h, 4 °C | 0.073 µM
CC[C@H](C)[C@H](NC(=O)[C@H](CCCNC(=N)N)NC(=O)CNC(=O)[C@@H](NC(=O)[C@@H]1CCCN1C(=O)[C@@H](N)CCSC)[C@@H](C)CC)C(=O)N[C@@H](C)C(=O)N[C@@H](CCC(=O)O)C(=O)N[C@@H](CS)C(=O)N[C@H](C(=O)N[C@@H](CC(C)C)C(=O)O)[C@@H](C)CC | HLA class I histocompatibility antigen, B alpha chain allele B*40:01 | binding, competitor, radioligand competition | two days, room temperature, HLA-B*40:01 | 2.26 µM
N=C(N)NCCC[C@H](NC(=O)[C@H](CC(N)=O)NC(=O)[C@H](Cc1ccc(O)cc1)NC(=O)[C@H](CO)NC(=O)[C@H](CCCNC(=N)N)NC(=O)[C@H](CS)NC(=O)[C@H](Cc1c[nH]cn1)NC(=O)[C@H](CCCNC(=N)N)NC(=O)[C@@H](N)CCCNC(=N)N)C(=O)O | HLA class I histocompatibility antigen, B alpha chain allele B*27:05 | peptide binding, fluorescence anisotropy | 18 h, 4 °C | 0.055 µM
CC(C)C[C@H](NC(=O)[C@@H](N)CCC(=O)O)C(=O)N1CCC[C@H]1C(=O)N[C@@H](CC(=O)O)C(=O)N[C@@H](CCC(=O)O)C(=O)N[C@@H](Cc1ccccc1)C(=O)N[C@H](C(=O)N[C@H](C(=O)N[C@H](C(=O)O)C(C)C)C(C)C)C(C)C | HLA class I histocompatibility antigen, B alpha chain | peptide-MHC binding, radioligand competition binding | – | > 70 µM
CC[C@H](C)[C@H](NC(=O)[C@H](CCCNC(=N)N)NC(=O)[C@@H](N)Cc1ccccc1)C(=O)N[C@@H](CS)C(=O)N1CCC[C@H]1C(=O)N[C@H](C(=O)N[C@@H](Cc1ccccc1)C(=O)N[C@H](C(=O)N[C@@H](Cc1ccccc1)C(=O)O)C(C)C)[C@@H](C)CC | HLA class I histocompatibility antigen, B alpha chain allele B*27:05 | peptide binding, fluorescence anisotropy | 18 h, 4 °C | 0.877 µM
CC(C)C[C@H](NC(=O)[C@H](CCC(N)=O)NC(=O)[C@H](CC(=O)O)NC(=O)[C@H](C)NC(=O)[C@@H](N)Cc1c[nH]cn1)C(=O)N[C@H](C(=O)N1CCC[C@H]1C(=O)N[C@H](C(=O)N[C@@H](Cc1c[nH]c2ccccc12)C(=O)O)[C@@H](C)O)[C@@H](C)O | HLA class I histocompatibility antigen, B alpha chain | peptide-MHC binding, radioligand competition binding | – | > 70 µM

For quick reference, copied from above:
SMILES | target | test | conditions | IC50
CC(C)C[C@H](NC(=O)[C@@H]1CCCN1C(=O)[C@@H](NC(=O)[C@@H]1CCCN1C(=O)[C@@H](NC(=O)[C@H](CCC(=O)O)NC(=O)[C@H](Cc1c[nH]cn1)NC(=O)[C@H](CCCNC(=N)N)NC(=O)[C@@H](N)CCCCN)C(C)C)C(C)C)C(=O)O | HLA class I histocompatibility antigen, B alpha chain allele B*27:05 | peptide binding, fluorescence anisotropy | 18 h, 4 °C | 0.907 µM
CC[C@H](C)[C@H](NC(=O)[C@@H]1CCCN1C(=O)[C@H](CO)NC(=O)[C@H](CCSC)NC(=O)[C@H](CCC(N)=O)NC(=O)[C@@H](N)CCCCN)C(=O)N[C@@H](Cc1c[nH]c2ccccc12)C(=O)N[C@H](C(=O)N[C@@H](Cc1ccc(O)cc1)C(=O)O)[C@@H](C)O | HLA class I histocompatibility antigen, B alpha chain allele B*40:01 | binding | – | 45.7 µM
